Published values of several laboratories.
Protocols differ between the studies behind these lines. Numbers after ± are the reported error. Converted amounts (≈) assume the structure as drawn.

Substance	organism	test	test system	conditions	how to read	endpoint	result
Cc1ccc(S(=O)(=O)N2C(=O)CSC2c2cccc([N+](=O)[O-])c2)cc1 (stereo not shown)	Lacticaseibacillus casei	broth microdilution	NCIM 2651	–	–	MIC	32 µg/mL (≈ 84.6 µM)
COc1cccc(NC(=O)Nc2nnc(SCC(O)(Cn3cncn3)c3ccc(F)cc3F)s2)c1 (stereo not shown)	Nannizzia gypsea	broth microdilution	PTCC 5070	48 h, 37 °C	–	MIC90	16 µg/mL (≈ 30.8 µM)
CO[C@H]1C[C@@H]2C[C@H](O)CC[C@]2(C)[C@H]2CC[C@]3(C)[C@@H]([C@H](C)CCC(=O)O)CC[C@H]3[C@H]12	Clostridioides difficile	spore germination, inhibitor, OD600	NAP1	20 min, together with: 2000 µM taurocholate	–	complete inhibition concentration	> 500 µM
CNC(=O)c1ccc(-c2cnn3ccc(C(=O)N(CCC(=O)OCC(=O)N(C)C)c4ccc(Cl)cc4)cc23)cc1	Cryptosporidium hominis	cytopathic effect	HCT-8	48 h	–	EC50	> 20000 nM
CC[C@H]1OC(=O)[C@H](C)[C@@H](O[C@H]2C[C@@](C)(OC)[C@@H](O)[C@H](C)O2)[C@H](C)[C@@H](O[C@@H]2O[C@H](C)C[C@H](N(C)C)[C@H]2O)[C@](C)(O)C[C@@H](C)CN(C)[C@H](C)[C@@H](O)[C@]1(C)O	all pathogens	–	community-acquired pneumonia patients	Fine score 70 or more	–	sensitive strains	60%
NC(=O)c1ncn([C@@H]2O[C@H](CO)[C@@H](O)[C@H]2O)n1	Hepatitis E virus	viral replication, inhibitor, luciferase	–	48 h, replicon	–	EC50	2900 nM
CN[C@H](CC(C)C)C(=O)N[C@H]1C(=O)N[C@@H](CC(N)=O)C(=O)N[C@H]2C(=O)N[C@H]3C(=O)N[C@H](C(=O)N[C@H](C(=O)O)c4cc(O)cc(O)c4-c4cc3ccc4O)[C@H](O)c3ccc(c(Cl)c3)Oc3cc2cc(c3O[C@@H]2O[C@H](CO)[C@@H](O)[C@H](O)[C@H]2O[C@H]2C[C@](C)(N)[C@H](O)[C@H](C)O2)Oc2ccc(cc2Cl)[C@H]1O	Staphylococcus aureus CVCC546	ELISA, measured: TNF-α	CD-1 mouse endometritis	10 µg/mL, 24 h	–	serum cytokine level	125 pg/mL
C[C@@H]1[C@H](O)[C@@H](C)/C=C/C=C/C=C/C=C/C=C/C=C/C=C/[C@H](O[C@@H]2O[C@H](C)[C@@H](O)[C@H](N)[C@@H]2O)C[C@@H]2O[C@](O)(C[C@@H](O)C[C@@H](O)[C@H](O)CC[C@@H](O)C[C@@H](O)CC(=O)O[C@H]1C)C[C@H](O)[C@H]2C(=O)O	Leishmania braziliensis	parasite growth	J774	24 h, intracellular, amastigote	–	EC50	200 nM
CNCCOC(=O)OCOc1c(-c2ccc(C(F)(F)F)cc2)c(C)nc2cc(OC)c(Cl)cc12	Plasmodium berghei (GFP)	–	mice	oral, 10 mg/kg once daily, days 3-5, day 6 post-infection	–	parasitaemia suppression	75 ± 0.4%
CCCCCCCc1cc(=O)c2c(CC(=O)OC)cc(O)cc2o1	Phyllosticta citricarpa	–	Citrus sinensis leaf discs	10000 µg/mL, 504 h, methanol solution	–	pycnidia count	200 ± 6
Cc1cc(Nc2ccc(C(F)(F)F)nc2)n2nc(C(C)(F)F)nc2n1	Plasmodium vivax	schizont maturation	field isolates Papua Indonesia	48 h, human serum medium	–	EC50	180 nM
CC[C@H]1OC(=O)[C@H](C)[C@@H](O[C@H]2C[C@@](C)(OC)[C@@H](O)[C@H](C)O2)[C@H](C)[C@@H](O[C@@H]2O[C@H](C)C[C@H](N(C)C)[C@H]2O)[C@](C)(O)C[C@@H](C)C(=O)[C@H](C)[C@@H](O)[C@]1(C)O	all pathogens	–	community-acquired pneumonia patients	Fine score below 70	–	sensitive strains	17.6%
RKVVTDFFKNIPQRI	guinea pig spinal cord homogenate	–	peptide, (SJL/J x PL/J)F1 mouse, EAE model	intradermal, 0.1 mg peptide twice, in IFA, 10-day interval, challenge 10 days later	–	disease incidence	0%
CCN(CC)CCNC(=O)CN1C(=O)Cc2c([nH]c3ccc(Br)cc23)-c2ccc(Cl)cc21	Leishmania braziliensis	intracellular amastigote infection, DAPI fluorescence microscopy	macrophages	10 µM, 24 h, 5 µM if macrophages detach	lower = more active	infected macrophages	38 to 68%
CC(=O)Oc1ccccc1C(=O)Nc1ncc([N+](=O)[O-])s1	human norovirus	virus adsorption	human intestinal enteroids	concentration not given	–	viral genome equivalents	no effect
Cc1cccc(NC(=O)Nc2nnc(SCC(O)(Cn3cncn3)c3ccc(F)cc3F)s2)c1 (stereo not shown)	Nannizzia gypsea	broth microdilution	PTCC 5070	48 h, 37 °C	–	MIC90	2 µg/mL (≈ 3.97 µM)

A few entries again:
Substance	organism	test	test system	conditions	how to read	endpoint	result
CN[C@H](CC(C)C)C(=O)N[C@H]1C(=O)N[C@@H](CC(N)=O)C(=O)N[C@H]2C(=O)N[C@H]3C(=O)N[C@H](C(=O)N[C@H](C(=O)O)c4cc(O)cc(O)c4-c4cc3ccc4O)[C@H](O)c3ccc(c(Cl)c3)Oc3cc2cc(c3O[C@@H]2O[C@H](CO)[C@@H](O)[C@H](O)[C@H]2O[C@H]2C[C@](C)(N)[C@H](O)[C@H](C)O2)Oc2ccc(cc2Cl)[C@H]1O	Staphylococcus aureus CVCC546	ELISA, measured: TNF-α	CD-1 mouse endometritis	10 µg/mL, 24 h	–	serum cytokine level	125 pg/mL
C[C@@H]1[C@H](O)[C@@H](C)/C=C/C=C/C=C/C=C/C=C/C=C/C=C/[C@H](O[C@@H]2O[C@H](C)[C@@H](O)[C@H](N)[C@@H]2O)C[C@@H]2O[C@](O)(C[C@@H](O)C[C@@H](O)[C@H](O)CC[C@@H](O)C[C@@H](O)CC(=O)O[C@H]1C)C[C@H](O)[C@H]2C(=O)O	Leishmania braziliensis	parasite growth	J774	24 h, intracellular, amastigote	–	EC50	200 nM
CNCCOC(=O)OCOc1c(-c2ccc(C(F)(F)F)cc2)c(C)nc2cc(OC)c(Cl)cc12	Plasmodium berghei (GFP)	–	mice	oral, 10 mg/kg once daily, days 3-5, day 6 post-infection	–	parasitaemia suppression	75 ± 0.4%
